Published values from different studies.
A part holds a random share of what one study measured. Substitutions count along the parent as printed.

Block 1 — target: CCNE2, cyclin fold, Cln2 fusion (human); technique: yeast growth competition, sequencing; medium: yeast; setting: strong parent motif; baseline: not given; direction: higher = stronger binding
Starting sequence: PKN2 docking peptide (human); VSAVRKLDFSDTM; partner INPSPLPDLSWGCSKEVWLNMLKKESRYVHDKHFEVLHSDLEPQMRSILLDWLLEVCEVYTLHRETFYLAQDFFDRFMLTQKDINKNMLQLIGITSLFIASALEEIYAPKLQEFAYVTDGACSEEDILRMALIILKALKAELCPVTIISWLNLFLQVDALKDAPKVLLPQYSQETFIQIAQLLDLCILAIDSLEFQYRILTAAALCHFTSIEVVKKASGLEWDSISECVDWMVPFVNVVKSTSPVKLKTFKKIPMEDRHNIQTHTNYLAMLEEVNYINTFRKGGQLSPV
`VSAVRKLLFSDTM [D8L]` — result for “normalised enrichment score”: 1.93.
`VSAVRKLDFVDTM [S10V]` — result for “normalised enrichment score”: 3.35.
Under “normalised enrichment score”, `VSAVRKLDVSDTM [F9V]` is recorded as 0.34.
Under “normalised enrichment score”, `VSAVRKLDSSDTM [F9S]` is recorded as 0.391.
`VSAVRKLDISDTM [F9I]` — result for “normalised enrichment score”: 0.365.
`VSEVRKLDFSDTM [A3E]` — result for “normalised enrichment score”: 0.353.
For `VSAVRVLDFSDTM [K6V]`, “normalised enrichment score” read 3.75.
`VSAVRKLDKSDTM [F9K]`: “normalised enrichment score” 0.295.
`VSAVRKLDFSITM [D11I]`: “normalised enrichment score” 5.12.
For `VSAGRKLDFSDTM [V4G]`, “normalised enrichment score” read 0.0604.
For `VSAVRCLDFSDTM [K6C]`, “normalised enrichment score” read 2.77.
`VSAVRFLDFSDTM [K6F]`: “normalised enrichment score” 2.17.
`VSAVKKLDFSDTM [R5K]`: “normalised enrichment score” 1.6.
Under “normalised enrichment score”, `VSAVWKLDFSDTM [R5W]` is recorded as 0.119.
`VSGVRKLDFSDTM [A3G]` — result for “normalised enrichment score”: 1.37.
`VSAVRKLDFSDVM [T12V]` — result for “normalised enrichment score”: 4.36.
For `VSAVRKLDCSDTM [F9C]`, “normalised enrichment score” read 0.313.
`VSKVRKLDFSDTM [A3K]`: “normalised enrichment score” 0.624.
`VSAVRKLDMSDTM [F9M]`: “normalised enrichment score” 0.795.
Under “normalised enrichment score”, `VSAVRKLGFSDTM [D8G]` is recorded as 0.586.
`VSAVRKLDFKDTM [S10K]` — result for “normalised enrichment score”: 3.32.
For `VSAVRKLDFIDTM [S10I]`, “normalised enrichment score” read 2.72.
Under “normalised enrichment score”, `VHAVRKLDFSDTM [S2H]` is recorded as 4.72.
Under “normalised enrichment score”, `VSAVRKLVFSDTM [D8V]` is recorded as 4.02.
`VSTVRKLDFSDTM [A3T]`: “normalised enrichment score” 3.12.

Block 2 — technique: RNA Bind-n-Seq; molecule type: RNA; medium: in vitro; tested at: 365 nM; baseline: no-protein control; direction: higher = stronger binding
Target: RNA binding protein fox-1 homolog 2, RRM domain, GST-SBP tag (RBFOX2, Homo sapiens, UniProt O43251-10, residues 100-194)
Setting: natural RNA segment, single round, ends assumed
Residues (chain): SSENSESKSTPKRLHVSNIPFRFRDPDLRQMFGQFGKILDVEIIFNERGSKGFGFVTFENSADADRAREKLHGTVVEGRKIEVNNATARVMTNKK
For `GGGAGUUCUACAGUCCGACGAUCAGCCGCCCGCCCGCCGGUCCCCAGCCGGGCUCCGUUGGGUUUCCCAUUGUAAAUACUGCCUCGCCCCUCCUUUGAACUCCAGGGCAUCAGACCUCAAGGGGUAAACUGGAUGGAAUUCUCGGGUGCCAA`, “RBNS enrichment (R)” read 0.408.
`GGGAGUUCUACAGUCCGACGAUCCCUAAGCCCCCUCCCCAACAAGAUAUCUGCCGAGCUGUCAGGCCCAGCCCACCCUACACCGUGCAAUACCCAGACCCAGCCUGGUCUUUCCCCAGGCCUUUGCCCGCUUCUGGAAUUCUCGGGUGCCAA`: “RBNS enrichment (R)” 3.82.
For `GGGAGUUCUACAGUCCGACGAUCUUAAAGAAAAGGUUUUUAGGUAUUUUUGGUAUUAUAUAGUCUCUAAGGCCAGAAGGGGCUUAUAAUGACUUCUCUUCUAGAAUUGUAAUACUAAAAAACUACUCGAGUAAUGGAAUUCUCGGGUGCCAA`, “RBNS enrichment (R)” read 0.648.
`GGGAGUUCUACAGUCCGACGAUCUGCUUUUUUAUAAGAGUUGUCAUUGUUGGAAAUUCUUAAAUAAAACUGAUUUAAAUAAUAUGUGUCUUUGUUUUGCAGCCCUGAAUGCAAAGAAUUCAUAGCAGUUAAUUUGGAAUUCUCGGGUGCCAA`: “RBNS enrichment (R)” 0.774.
Under “RBNS enrichment (R)”, `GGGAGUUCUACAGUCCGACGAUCGGGUGAGGACACUAACAGUGUAACUGGUGACCACGUGAACAGUUCCAUGAAUUAAAUGUUUCCUGUGUUAAUCAGUAUUCUUAAAUUAAAAGAAAAUGUUUAUAAUGGAAUGGAAUUCUCGGGUGCCAA` is recorded as 0.522.
For `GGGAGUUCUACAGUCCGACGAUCCGUUGGGUCCACGCCUCCACCGCCCCAUCUUGCCCCAAACGGAAAGCGCUGUAUCUGCAGUGGCAGCCCUUCCCCACUUCGGCUCUGGGAGGGUCCAGCCAGUGUCACCUUGGAAUUCUCGGGUGCCAA`, “RBNS enrichment (R)” read 0.276.
For `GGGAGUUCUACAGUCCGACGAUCGACUCUCUGAGGCUUCUUGUUAAAAUGGUUGCCUUUGUUUCUCAGUGAUAGCGAUACAGCUCAGGAAUGGACUAUGGAAACUGAUACCUAGCGACAUUAGCUGAGAACACUGGAAUUCUCGGGUGCCAA`, “RBNS enrichment (R)” read 0.937.
For `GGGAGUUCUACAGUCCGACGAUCUAGCCAGAGAAUGGUUCAAAUGUCUUACAGAACUAAGAUCUUUUUCAGAGAAAUUGCUCACAAAAGUUAGUGACAGUUGUAUUUAUUUUUUUAAGUUACAAUAAAAUGCUUGGAAUUCUCGGGUGCCAA`, “RBNS enrichment (R)” read 0.851.

Block 3 — technique: RNA Bind-n-Seq; molecule type: RNA; medium: in vitro; tested at: 200 nM; setting: whole 134-nt RNA, ends assumed; together with: 150 mM LiCl; baseline: input library; direction: higher = stronger binding; all molecules: 7-deaza-guanosine replaces G
Target: Fragile X messenger ribonucleoprotein 1, C-terminal low-complexity region (Fmr1, Mus musculus, UniProt P35922)
`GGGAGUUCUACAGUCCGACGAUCCACAGACAACACGCACCCACACAGACACAGAGGGAAAGGGUUGGGAUGGGGACAGGGUGCACAGCAGGGCGGGGUAGGACCCCAGCCCCUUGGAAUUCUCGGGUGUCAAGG` has a log2 enrichment of -0.885.
The log2 enrichment of `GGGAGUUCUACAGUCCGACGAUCAAGUCCUGUGCUACACAUCGUAUGUACCGAAUCGGGGUUUGGGGUUUGGGUUUGGGAAAGUAUUAUGUUACGCCGUUCGGAUCUGCACUUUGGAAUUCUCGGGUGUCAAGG` is reported as -1.35.
For `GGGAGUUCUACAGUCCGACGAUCCCUGUGCUACACAUCGUAUGUACCGAAUCGGCCCCCCCGGGGCCCCCCCGGGCCCCCCCGGAAAGUAUUAUGUUACGCCGUUCGGAUCUGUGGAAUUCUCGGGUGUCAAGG`, the log2 enrichment was -0.608.
With `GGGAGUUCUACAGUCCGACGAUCCUCAAGUCCUGUGCUACACAUCGUAUGUACCGAAUCGGGCCGGGGCCGGCCGGGAAAGUAUUAUGUUACGCCGUUCGGAUCUGCACUUCCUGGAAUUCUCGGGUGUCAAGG` the log2 enrichment was 0.371.
`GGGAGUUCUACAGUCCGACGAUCUGGCCCUGGCGGCAUGCGGGGAGGAAGAGGUGGCCUCAUGGAUCGUGGUGGUCCCGGUGGAAUGUUCAGAGGUGGCCGUGGUGGAGACAGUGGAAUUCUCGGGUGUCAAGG` gave a log2 enrichment of 0.0474.
`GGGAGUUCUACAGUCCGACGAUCCAAGUCCUGUGCUACACAUCGUAUGUACCGAAUCGGGAAAGGGGAAAGGAAAGGGAAAGUAUUAUGUUACGCCGUUCGGAUCUGCACUUCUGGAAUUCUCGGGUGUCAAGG` has a log2 enrichment of -0.561.
The log2 enrichment of `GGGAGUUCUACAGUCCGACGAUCCAAGUCCUGUGCUACACAUCGUAUGUACCGAAUCGGGAGGGAGGGAAAAAAAGGGAAAGUAUUAUGUUACGCCGUUCGGAUCUGCACUUCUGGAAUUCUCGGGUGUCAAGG` is reported as -0.316.
With `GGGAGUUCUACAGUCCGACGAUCGCAGGAAGUAAAAACAAAUGGAAAUGCUUAGGAUAGUGGCAGGGGUGGGGGUUGCUAAGGAAAGGGUGGGAUGGGAGUGGGUAAAGAGUUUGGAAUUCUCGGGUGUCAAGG` the log2 enrichment was 1.37.

Block 4 — technique: protein binding microarray; molecule type: double-stranded DNA, one strand shown; medium: in vitro; tested at: not given; baseline: not given; direction: higher = stronger binding
Target: Histone acetyltransferase KAT6A, winged helix 1, GST fusion (KAT6A, Homo sapiens, UniProt Q92794, residues 1-85)
Setting: 8-mer, flanks averaged, mean of 2 arrays, mostly near background
Residues (chain): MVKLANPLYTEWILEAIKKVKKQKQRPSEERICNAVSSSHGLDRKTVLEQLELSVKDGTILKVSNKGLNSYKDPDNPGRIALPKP
`CCACAGGG` has an E-score of -0.0957.
`CTCGTGCA` gave an E-score of -0.0452.
`CATGACAG` has an E-score of -0.0875.
For `AGTGTTAT`, the E-score was -0.0964.
With `AGCGGGCC` the E-score was 0.297.
The E-score of `GGTGCAGA` is reported as -0.131.
`CACCATCG` gave an E-score of -0.123.
With `GAACAGGC` the E-score was 0.0101.
For `CTGCGTGA`, the E-score was 0.144.
For `CCTATGGC`, the E-score was 0.00927.
With `AGGGTTAG` the E-score was -0.0791.
The E-score of `GCCGGAAA` is reported as 0.239.
With `ACACTTCA` the E-score was -0.276.
The E-score of `CTATGTTC` is reported as -0.0577.
The E-score of `CTCGACTC` is reported as -0.134.
For `GAGGTAAA`, the E-score was -0.201.
With `CATATATG` the E-score was -0.245.
For `CACGATAG`, the E-score was -0.215.
The E-score of `AATGCGCA` is reported as 0.298.
`CTGAACGA` gave an E-score of -0.164.
`CCTGACCA` gave an E-score of -0.211.
`TTCCACAA` has an E-score of -0.248.
The E-score of `AAGTTACG` is reported as 0.0314.
With `AGCGTGCC` the E-score was 0.162.
With `TAATTTGA` the E-score was -0.0487.

Some of these lines once more (block 4):
For `CTGCGTGA`, the E-score was 0.144.
For `CCTATGGC`, the E-score was 0.00927.
With `AGGGTTAG` the E-score was -0.0791.
The E-score of `GCCGGAAA` is reported as 0.239.
With `ACACTTCA` the E-score was -0.276.
The E-score of `CTATGTTC` is reported as -0.0577.
The E-score of `CTCGACTC` is reported as -0.134.
For `GAGGTAAA`, the E-score was -0.201.
With `CATATATG` the E-score was -0.245.
